Measured values pooled from the literature.
Parts stem from different laboratories: compare values within a part only. Changes are numbered by the printed parent chain.

Block 1 — target: CCND2, cyclin fold, Cln2 fusion (human); method: yeast growth competition, sequencing; sample: yeast; notes: weak parent motif; relative to: not given; direction: higher = stronger binding
Parent: CDKN1B docking peptide (human); PSACRNLFGPVDH
| Variant | normalised enrichment score |
| --- | --- |
| D12C | 0.363 |
| S2Y | -0.133 |
| G9K | 0.36 |
| L7R | 0.0797 |
| R5H | 0.254 |
| G9I | 0.22 |
| A3P | -0.0452 |
| N6V | 0.415 |
| C4P | 0.109 |
| S2H | 0.225 |
| P1N | 0.0932 |
| F8P | -0.0431 |
| H13Y | 0.115 |
| S2M | -0.0278 |
| P10M | -0.156 |
| G9P | -0.135 |
| L7F | 0.212 |

Block 2 — method: RNA Bind-n-Seq; molecule type: RNA; sample: in vitro; tested at: 200 nM; notes: whole 134-nt RNA, ends assumed; with: 150 mM KCl; relative to: input library; direction: higher = stronger binding
Target: Ras GTPase-activating protein-binding protein 1, full length (G3BP1, Homo sapiens, UniProt Q13283)
Chain of UniProt Q13283 (whole entry, looked up): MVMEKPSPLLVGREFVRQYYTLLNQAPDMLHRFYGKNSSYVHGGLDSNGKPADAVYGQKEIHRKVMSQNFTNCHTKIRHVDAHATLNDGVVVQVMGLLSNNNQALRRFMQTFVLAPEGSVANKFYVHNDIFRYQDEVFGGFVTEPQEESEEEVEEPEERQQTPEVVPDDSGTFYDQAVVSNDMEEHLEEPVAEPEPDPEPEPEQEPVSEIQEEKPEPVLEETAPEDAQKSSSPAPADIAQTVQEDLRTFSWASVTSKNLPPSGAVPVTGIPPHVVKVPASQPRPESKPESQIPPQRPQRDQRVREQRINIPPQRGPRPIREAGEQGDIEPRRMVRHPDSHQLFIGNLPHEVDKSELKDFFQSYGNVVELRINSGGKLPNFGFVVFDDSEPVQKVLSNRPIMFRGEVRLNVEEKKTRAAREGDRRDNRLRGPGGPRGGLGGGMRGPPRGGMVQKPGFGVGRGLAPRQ
All sequences stand within: GGGAGUUCUACAGUCCGACGAUC … UGGAAUUCUCGGGUGUCAAGG
| Strand | log2 enrichment |
| --- | --- |
| UUGACGAGGCCGGCCCGGGAGAUGAGACCACCGGCCAGGAAGUCAUUGUCAUUCAGGACACGGGCUUUUCUGUGAAGAUCCUCGCCCCUG | -1.17 |
| CUGUGCUACACAUCGUAUGUACCGAAUCGGGUUUUUUUGGGUUUUUUUGGGGUUUUUUUGGGAAAGUAUUAUGUUACGCCGUUCGGAUCU | -0.956 |
| UGGCCCUGGUGGCAUCCGGGGAGGAAGAGGUGGCCUCAUGGAUCGUGGUGGUCCCGGUGGAAUGUUCAGAGGUGGCCGUGGUGGAGACAG | 0.595 |
| UCCUGUGCUACACAUCGUAUGUACCGAAUCGGGAAAAAAAGGGAAAGGGAAAAAAAGGGAAAGUAUUAUGUUACGCCGUUCGGAUCUGCA | -0.318 |
| UCAAGUCCUGUGCUACACAUCGUAUGUACCGAAUCGGGAGGGUGGGAAAAAGGGAAAGUAUUAUGUUACGCCGUUCGGAUCUGCACUUCC | 0.977 |
| UUUCUAGCUGGACCAGUCCGGUACGCUCCGGGCCUCACCGAGGAAGUCCCACCCUGCAGGGGAACCGACUCUGGCCGGCCCUAACCCCUC | -0.458 |
| GCAGGAAGUAAAAACAAAUGGAAAUGCUUUGGAUAGUGGCAGGGGUGGGGGUUGCUAAGGAAAGGGUGGGAUGGGAGUGGGUAAAGAGUU | 1.24 |
| UUCCUCAAGUCCUGUGCUACACAUCGUAUGUACCGAAUCGGCGGCGGCGGAAAGUAUUAUGUUACGCCGUUCGGAUCUGCACUUCCAGCA | -0.281 |
| UGCGGGCCGAGAAUCGGGAGCUGGGCAAACGCGUACAGGCACUGCAGGAGGAGAGUCGCUACCUACGGGCAGUCUUAGCCAACGAGACUG | -0.842 |

Block 3 — target: BATF2, bZIP domain (human); method: DHFR protein complementation; sample: yeast; relative to: wild-type JUN-FOS pair; direction: higher = stronger binding
Notes: single substitutions, most at no-binding floor
Parent: JUN, bZIP domain (human); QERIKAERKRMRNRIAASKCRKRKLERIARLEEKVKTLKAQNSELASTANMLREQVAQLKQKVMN; partner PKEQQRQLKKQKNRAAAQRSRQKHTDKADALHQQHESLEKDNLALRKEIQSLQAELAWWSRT
| Variant | binding fitness [natural log] |
| --- | --- |
| N42R | -0.819 |
| L52T | -1.47 |
| L45Q | -1.25 |
| V35K | -1.48 |
| S43C | -0.343 |
| R53W | -1.21 |
| E54V | -0.645 |
| A29M | -0.765 |
| E33H | -0.608 |
| A29F | -0.6 |
| L31W | -0.572 |
| E33T | -0.622 |

Block 4 — method: RNA Bind-n-Seq; molecule type: RNA; sample: in vitro; tested at: 365 nM; relative to: no-protein control; direction: higher = stronger binding
Target: RNA binding protein fox-1 homolog 2, RRM domain, GST-SBP tag (RBFOX2, Homo sapiens, UniProt O43251-10, residues 100-194)
Notes: natural RNA segment, single round, ends assumed
All sequences stand within: GGGAGUUCUACAGUCCGACGAUC … UGGAAUUCUCGGGUGCCAA
Construct (chain): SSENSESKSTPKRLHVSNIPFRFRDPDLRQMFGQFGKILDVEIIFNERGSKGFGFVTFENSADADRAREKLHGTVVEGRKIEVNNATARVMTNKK
| Strand | RBNS enrichment (R) |
| --- | --- |
| CCGUGUGUUGUCAUGUCACUCACCCCAAGCACCUGCUGGCUGCUGGAAGCAUACCCCAAGACCCCAAGCCUUGACUCCAGCUGCGCCCACAGGAAGUCCAGUCCCGACAG | 0.601 |
| CCCUGGUGUACUCCUGAGGUGUCUGCCCCAGCUGGCUGCCCUGGGAGAGUGGCUGGAUGGCUUUGGCUGCCCUGUAGCCUACCUGUGGCAGCAUACUGUGCCAGCCAUGC | 0.228 |
| AACCCUGCAGGCCUCAUCUUUCCCAAAACCCACUUUGUCUUGGUGGGAGUGGGUCCGCGCUGCUCUGCAGCAGGGGCUGGGGAGUGGACAGCAUCAGGUGGGAAAGUGGA | 0.493 |
| UUUAUGUGAUUGUACAGUAUUAAAAGUUUUUUCUUAUGUACAGUAAACUUUAUCAUAUGGCAGAAGCCUCUAUUGUGUUAAAUAAAUUAGUAUUUCAUAUAUAUACAUAU | 0.939 |
| GGGCCCUGGAGGCAACUGGCACGGCCUGGUCCCCCUGCUUUGCUGUAUUCUGAUUCCCCAACCCGCUCCCCUGGGCUCAGAUCUGUCCUGUCCUAGGGCGGAGCCAGGCG | 0.33 |
| CUUGGCUGGUGGGCAGAUGCAAAUAGCUUUUGCUGUUAUUAAUGAAGUAAUUACUAAAUGCACUUAAACCAGGGCAGGAAGGAAUGGAAGGAUGGAGCUAGAAAGCUCAG | 0.362 |
| UUUAUGACUUUACGUGCAAAUGUUUUGACCAUAUUGAUCAUAUAUUUUGACAAAUAUAUUUAUAACUACAUAUUAAAAGAAAAUAAAAUGAGUCAUUAUUUUAAAGAUAA | 0.536 |
| CCUGUCUGGGACACUUAAGUAACAUCUAAAGCAUUAUUGCUUUAGAAUGUUCAAAUAAAAUUUCCUGACCAAAUUGUUUUGUGGAAAUAGAUGUGUUUGCAAUUUGAAGA | 0.684 |

Block 5 — method: DHFR PCA, deep sequencing; sample: yeast; with: (+)-ABA 1.4 µM; relative to: wild-type fitted maximum; direction: higher = stronger binding
Target: ABI1, truncated, D143A, DHFR fusion (Arabidopsis thaliana)
Notes: methotrexate growth selection, single substitutions
Parent: PYL1, truncated, DHFR fusion (Arabidopsis thaliana); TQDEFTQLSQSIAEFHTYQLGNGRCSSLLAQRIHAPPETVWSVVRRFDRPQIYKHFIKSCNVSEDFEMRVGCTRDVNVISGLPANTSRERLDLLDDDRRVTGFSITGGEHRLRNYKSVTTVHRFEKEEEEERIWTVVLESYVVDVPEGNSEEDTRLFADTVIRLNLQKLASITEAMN; partner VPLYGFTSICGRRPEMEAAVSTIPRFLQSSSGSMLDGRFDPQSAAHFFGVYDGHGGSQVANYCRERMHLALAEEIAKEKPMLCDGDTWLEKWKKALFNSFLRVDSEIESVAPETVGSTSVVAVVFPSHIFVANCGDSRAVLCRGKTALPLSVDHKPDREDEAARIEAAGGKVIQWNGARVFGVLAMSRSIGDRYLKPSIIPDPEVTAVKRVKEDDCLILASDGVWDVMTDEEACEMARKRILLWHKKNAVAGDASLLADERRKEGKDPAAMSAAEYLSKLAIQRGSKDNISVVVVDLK
| Variant | relative binding score [%] |
| --- | --- |
| L20A | 68.1 |
| L138F | 43.7 |
| D159T | -9.73 |
| F56N | 1.33 |
| K168G | 16.9 |
| S150I | -19.2 |
| S104F | -2.84 |
| N61Y | 58.6 |
| E109G | 14.3 |
| V121Y | -11.5 |
| F47G | 7.79 |
| K116H | 32.4 |
| D75G | 1.95 |
| I57L | 23.3 |

Other studies, line by line
| Molecule | target | test | test system | setting | how to read | endpoint | value |
| --- | --- | --- | --- | --- | --- | --- | --- |
| PhoQ, residues 284 288 289 292 302 303 TAVSDG | PhoP, residues 12 14 15 18 19 QWHVF (Escherichia coli, UniProt P23836) | Sort-seq, measured: YFP reporter | E. coli | PhoQ-PhoP variant library, with: 10 µM Mg2+ | relative to: high Mg2+ state, higher = stronger signaling | fold induction | 4.12 |

Repeated from above (block 2):
| Strand | log2 enrichment |
| --- | --- |
| UUGACGAGGCCGGCCCGGGAGAUGAGACCACCGGCCAGGAAGUCAUUGUCAUUCAGGACACGGGCUUUUCUGUGAAGAUCCUCGCCCCUG | -1.17 |
| CUGUGCUACACAUCGUAUGUACCGAAUCGGGUUUUUUUGGGUUUUUUUGGGGUUUUUUUGGGAAAGUAUUAUGUUACGCCGUUCGGAUCU | -0.956 |
| UGGCCCUGGUGGCAUCCGGGGAGGAAGAGGUGGCCUCAUGGAUCGUGGUGGUCCCGGUGGAAUGUUCAGAGGUGGCCGUGGUGGAGACAG | 0.595 |
| UCCUGUGCUACACAUCGUAUGUACCGAAUCGGGAAAAAAAGGGAAAGGGAAAAAAAGGGAAAGUAUUAUGUUACGCCGUUCGGAUCUGCA | -0.318 |
| UCAAGUCCUGUGCUACACAUCGUAUGUACCGAAUCGGGAGGGUGGGAAAAAGGGAAAGUAUUAUGUUACGCCGUUCGGAUCUGCACUUCC | 0.977 |
| UUUCUAGCUGGACCAGUCCGGUACGCUCCGGGCCUCACCGAGGAAGUCCCACCCUGCAGGGGAACCGACUCUGGCCGGCCCUAACCCCUC | -0.458 |
| GCAGGAAGUAAAAACAAAUGGAAAUGCUUUGGAUAGUGGCAGGGGUGGGGGUUGCUAAGGAAAGGGUGGGAUGGGAGUGGGUAAAGAGUU | 1.24 |
| UUCCUCAAGUCCUGUGCUACACAUCGUAUGUACCGAAUCGGCGGCGGCGGAAAGUAUUAUGUUACGCCGUUCGGAUCUGCACUUCCAGCA | -0.281 |
